Assay results from different studies.
Parts stem from different laboratories: compare values within a part only. Changes are numbered by the printed parent chain.

Block 1 — target: BATF2, bZIP domain (human); technique: DHFR protein complementation; sample: yeast; reference: wild-type JUN-FOS pair; reading: higher = stronger binding
Notes: single substitutions, most at no-binding floor
Starting sequence: JUN, bZIP domain (human); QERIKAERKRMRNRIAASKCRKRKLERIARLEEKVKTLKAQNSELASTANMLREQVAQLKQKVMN; partner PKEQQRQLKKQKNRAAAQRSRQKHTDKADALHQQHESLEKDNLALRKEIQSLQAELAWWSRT
Substitution	binding fitness [natural log]
L45V	-1.33
V35A	-1.11
R53T	-1.15
K34V	-0.521
L45G	-1.41
V35L	-0.505
K39L	-0.411
R30F	-0.227
A40K	-0.25
A46N	-0.282
L38I	-0.956
V56D	-1.17
V56L	-0.198
M51C	-0.525
L31I	-0.495
S47M	-0.306

Block 2 — target: CCNE2, cyclin fold, Cln2 fusion (human); technique: yeast growth competition, sequencing; sample: yeast; notes: weak parent motif; reference: not given; reading: higher = stronger binding
Starting sequence: MASTL docking peptide (human); PMIAKNLMCELDE; partner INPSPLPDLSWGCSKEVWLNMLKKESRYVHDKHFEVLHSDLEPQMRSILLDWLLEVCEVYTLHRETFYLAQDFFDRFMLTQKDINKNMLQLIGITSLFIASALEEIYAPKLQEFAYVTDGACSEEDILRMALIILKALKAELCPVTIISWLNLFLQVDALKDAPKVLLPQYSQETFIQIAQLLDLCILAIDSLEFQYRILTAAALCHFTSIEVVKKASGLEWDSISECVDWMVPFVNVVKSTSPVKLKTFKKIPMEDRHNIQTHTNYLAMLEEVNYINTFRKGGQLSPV
Substitution	normalised enrichment score
D12L	0.104
D12I	-0.257
K5A	0.0397
L7S	-0.0187
M2F	0.11
M2G	-0.0217
A4I	-0.0585
N6V	0.0942
N6P	0.00626
D12C	0.105
L7P	-0.235
L7H	-0.973
A4T	-0.127
N6T	0.224
E10S	-0.294
E10L	0.31
D12A	0.136
A4W	0.308
M8K	0.0352
L7A	-0.148
D12P	-0.352
A4Q	-0.353
M2A	-0.228
K5C	-0.0606

Block 3 — technique: RNA Bind-n-Seq; form: RNA; sample: in vitro; tested at: 200 nM; notes: whole 134-nt RNA, ends assumed; together with: 150 mM KCl; reference: input library; reading: higher = stronger binding
Target: Fragile X messenger ribonucleoprotein 1, C-terminal low-complexity region (Fmr1, Mus musculus, UniProt P35922)
Sequence	log2 enrichment
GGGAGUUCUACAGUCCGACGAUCUGGGAGGUGGAUUUUGUUUCUUUUUUUAGCUCAUUUCCAGGGGUGGGAAUUUUUUUUUAAUAUGUGUCAUGAAUAAAGUUGUUUUUGAAAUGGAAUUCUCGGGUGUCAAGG	0.403
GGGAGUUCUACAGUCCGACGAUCCACAGACAACACGCACCCACACAGACACAGAGGGAAGGGGUUGUGAUGGGGACAGGGUGCACAGCAGGGCGGGGUAGGACCCCAGCCCCUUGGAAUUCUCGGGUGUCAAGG	0.798
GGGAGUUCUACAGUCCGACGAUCGCAGGAAGUAAAAACAAAUGGAAAUGCUUCGGAUAGUGGCAGGGGUGGGGGUUGCUAAGGAAAGGGUGGGAUGGGAGUGAGUAAAGAGUUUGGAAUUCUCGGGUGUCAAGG	0.217
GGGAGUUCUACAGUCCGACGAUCCAAGUCCUGUGCUACACAUCGUAUGUACCGAAUCGGGCCCGGCCCGGGGCCCGGGAAAGUAUUAUGUUACGCCGUUCGGAUCUGCACUUCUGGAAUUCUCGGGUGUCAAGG	-0.486
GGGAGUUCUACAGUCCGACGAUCUGGCCCUGGUGGCAUGCGGGGAGGAAGACGUGGCCUCAUGGAUCGUGGUGGUCCCGGUGGAAUGUUCAGAGGUGGCCGUGGUGGAGACAGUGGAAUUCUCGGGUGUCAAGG	-0.0676
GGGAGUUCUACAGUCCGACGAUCCCUCAAGUCCUGUGCUACACAUCGUAUGUACCGAAUCGGAAAGGAAAGGAGGAAAGUAUUAUGUUACGCCGUUCGGAUCUGCACUUCCAGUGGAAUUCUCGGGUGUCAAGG	0.184
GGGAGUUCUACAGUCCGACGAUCUCCUCAAGUCCUGUGCUACACAUCGUAUGUACCGAAUCGGAGGAGGUUUGGAAAGUAUUAUGUUACGCCGUUCGGAUCUGCACUUCCAGCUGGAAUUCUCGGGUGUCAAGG	-0.73
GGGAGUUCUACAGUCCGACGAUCUCCUCAAGUCCUGUGCUACACAUCGUAUGUACCGAAUCGGUGGUGGUUUGGAAAGUAUUAUGUUACGCCGUUCGGAUCUGCACUUCCAGCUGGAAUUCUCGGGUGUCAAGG	-0.258
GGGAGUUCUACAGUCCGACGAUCUUCACAGGUAAGUGGGGCAGUGUCCGGACCAGUGGACGCAGCAGUGGCCUUGGCACCGAUGUGGGCUCCCGGCUAGCUGGCAGAGACGCGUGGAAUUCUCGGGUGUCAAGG	-0.203

Block 4 — technique: RNA Bind-n-Seq; form: RNA; sample: in vitro; tested at: 365 nM; reference: no-protein control; reading: higher = stronger binding
Target: RNA binding protein fox-1 homolog 2, RRM domain, GST-SBP tag (RBFOX2, Homo sapiens, UniProt O43251-10, residues 100-194)
Notes: natural RNA segment, single round, ends assumed
Target sequence (chain): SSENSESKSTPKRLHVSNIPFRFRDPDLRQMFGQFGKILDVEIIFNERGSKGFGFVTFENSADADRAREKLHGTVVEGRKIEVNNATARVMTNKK
Sequence	RBNS enrichment (R)
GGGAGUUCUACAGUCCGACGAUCGAAUUGUGGAGGGAAAUGAAAUAUCCAUGUACCAGGCCAGGCAGAUGGUCAGUUAGGAUGACAAUAGUAAGUUCAUCUACAGCAUAAAAUGUGAAAUGCUUUCAUCCUCAUGGAAUUCUCGGGUGCCAA	1.43
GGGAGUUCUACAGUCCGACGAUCCCAGGGGUCACAACCUACAGGUUGAGAACUACUAUUCUAAAGGCUCAGCACUCUGCAGAGCACAGGCUGAGCUGCUCUGAGUACGGGGUGGCCUGAGUGUGGAGGACAAAUGGAAUUCUCGGGUGCCAA	0.324
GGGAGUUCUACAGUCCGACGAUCUGACUAACAUUUUCCAGCGCCUACUAUGUGUCAGAAACAAGUGUUUCUGCCUGGACAUCAUAAAUGGGGACUUGGACCCUGAGGAGAGUCAGGCCACGGUAAGCCCUUCCUGGAAUUCUCGGGUGCCAA	0.342
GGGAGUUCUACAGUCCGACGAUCUGUCUGGAACAGGAAAGAGGUAUAGGUGCCUAUCCACUGCCACUCUGCACGACUGAAGGGCCAGGCGUAAAGAUGACUGACAGAAGUGUAGACUAGAGGAGAGGCUAGAGUGGAAUUCUCGGGUGCCAA	0.399
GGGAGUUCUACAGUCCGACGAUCUCUAGCCUGGGGCUUGAAUUUGCAUGUCUAAUUCAUUUACUCACCAUAUUUGAAUUGGCCUGAACAGAUGUAAAUCGGGAAGGAUGGGAAAAACUGCAGUCAUCAACAAUUGGAAUUCUCGGGUGCCAA	3.02
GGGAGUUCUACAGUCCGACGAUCAUGUACAGAUACUAGCAUUGCACAUAUAGUCUGCUUUCUGUUCCUCCAGAAUUUGAGUCCUGUUAAUGUAGUAGAAAAAAAAAAAAGAAAUUUUCUUUUUCUUUUGUGCUUGGAAUUCUCGGGUGCCAA	0.898
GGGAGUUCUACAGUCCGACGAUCUCUUCAUGUUUCCACUCAUCCUUCCUUUGGACCCAUCGGGGAAAAAGUCUAAAUUGGAGAUCCAGUUUUAGAAGUGCUUUCUGGGAAGCAUUUAAUGGGAUUAGCUGUAGUGGAAUUCUCGGGUGCCAA	0.338
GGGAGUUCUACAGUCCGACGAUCUUUCUGUUACACAUAUGGUUUUGAUUUAUUUACAAUAUAUGCUGUGCCAUUUUGAUUUUUAUUUUGGUUGGUUGGUUGAAUAAAUAUGCGACACUCAGAACACUUGAGGUUGGAAUUCUCGGGUGCCAA	0.677

A few entries again (block 4):
Sequence	RBNS enrichment (R)
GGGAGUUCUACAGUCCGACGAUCUGACUAACAUUUUCCAGCGCCUACUAUGUGUCAGAAACAAGUGUUUCUGCCUGGACAUCAUAAAUGGGGACUUGGACCCUGAGGAGAGUCAGGCCACGGUAAGCCCUUCCUGGAAUUCUCGGGUGCCAA	0.342
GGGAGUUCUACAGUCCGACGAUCUGUCUGGAACAGGAAAGAGGUAUAGGUGCCUAUCCACUGCCACUCUGCACGACUGAAGGGCCAGGCGUAAAGAUGACUGACAGAAGUGUAGACUAGAGGAGAGGCUAGAGUGGAAUUCUCGGGUGCCAA	0.399
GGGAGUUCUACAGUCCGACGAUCUCUAGCCUGGGGCUUGAAUUUGCAUGUCUAAUUCAUUUACUCACCAUAUUUGAAUUGGCCUGAACAGAUGUAAAUCGGGAAGGAUGGGAAAAACUGCAGUCAUCAACAAUUGGAAUUCUCGGGUGCCAA	3.02
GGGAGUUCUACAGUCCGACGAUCAUGUACAGAUACUAGCAUUGCACAUAUAGUCUGCUUUCUGUUCCUCCAGAAUUUGAGUCCUGUUAAUGUAGUAGAAAAAAAAAAAAGAAAUUUUCUUUUUCUUUUGUGCUUGGAAUUCUCGGGUGCCAA	0.898
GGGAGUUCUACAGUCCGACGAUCUCUUCAUGUUUCCACUCAUCCUUCCUUUGGACCCAUCGGGGAAAAAGUCUAAAUUGGAGAUCCAGUUUUAGAAGUGCUUUCUGGGAAGCAUUUAAUGGGAUUAGCUGUAGUGGAAUUCUCGGGUGCCAA	0.338
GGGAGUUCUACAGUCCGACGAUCUUUCUGUUACACAUAUGGUUUUGAUUUAUUUACAAUAUAUGCUGUGCCAUUUUGAUUUUUAUUUUGGUUGGUUGGUUGAAUAAAUAUGCGACACUCAGAACACUUGAGGUUGGAAUUCUCGGGUGCCAA	0.677
